Published values from different studies.
Lines come from different studies, so protocols differ. Values joined by “and” are separate records of one study, mostly repeats; a detail may differ.
Target: Serine/threonine-protein kinase D2 (PRKD2, Homo sapiens, UniProt Q9BZL6)

| Compound | assay | test system | setting | scale | quantity | value |
| --- | --- | --- | --- | --- | --- | --- |
| CN1CC[C@@H](COc2cnc(C#N)cc2-c2ccn3nc(NC(=O)C4CC4)cc3c2)C1 | enzyme activity, inhibitor | – | 1 µM | – | inhibition | 6% |
| C=CC(=O)Nc1cccc(-c2cnc3[nH]cc(C(=O)NC(C)(C)C)c3n2)c1 | enzyme activity, inhibitor | – | 0.1 µM | – | inhibition | 5% |
| N[C@H]1CC[C@H](Nc2nccc(-c3cccnc3Oc3ccc(NC(=O)NC4CC4)c4ccccc34)n2)CC1 | kinobead competition pulldown | HEK293/HCT116 lysate mixture | 10 µM, 1 h, 4 °C | lower = stronger competition | log2 LFQ intensity | 21.6 and 22.7 and 22.9 and 22.3 |
| COc1cc(Nc2nccc(-c3cnn4nc(OC)ccc34)n2)cc(C(F)(F)F)c1 | binding, competition with immobilised ligand | – | 1 µM | – | remaining binding | 100% |
| Nc1ncc2c(n1)-c1c([nH]c3ccc(C4=CCOCC4)cc13)CCC2 | binding, competition with immobilised ligand | – | 1 µM | – | remaining binding | 82% |
| O=c1c(-c2ccc(Cl)c(CN3CCOCC3)c2)coc2cc(O)ccc12 | enzyme activity, inhibitor | – | 1 µM | – | remaining activity | 92% |
| COc1cc(-n2cc3cc(F)cc(C(N)=O)c3n2)cc(Cl)c1C1CC(O)(CCO)Cc2ccccc21 (stereo not drawn) | enzyme activity, inhibitor | – | 10 µM | – | inhibition | 0.78% |
| Cc1cnc2nc1Nc1cccc(c1)COC/C=C/COCc1cc(ccc1OCCN1CCOCC1)N2 | binding | – | 0.1 µM | – | remaining binding | 93% |
| Cc1cccc(O[C@H]2CCC[C@@H](C(C)CNCc3ccncc3)C2)c1 (relative stereo) | enzyme activity, inhibitor | – | 10 µM | – | inhibition | -3% |
| COc1c(Cl)cccc1Nc1c(-c2ccncc2C#C[C@@]2(C)CCCN2C(=O)/C=C/CN(C)C)[nH]c2c1C(=O)NCC2 | binding, competition with immobilised ligand | – | 3 µM | – | remaining binding | 94% |
| COc1ccc(NC(=O)Nc2ccc3c(c2)C(=O)N(C(C)CO)CC(C)C(CN(C)Cc2ccc4c(c2)OCO4)O3)cc1 (stereo not drawn) | kinase activity, KinaseProfiler | – | 0.03 µM, species human | baseline: control | remaining activity | 101% |
| Nc1ncc(-c2cc(-c3cnn(CC(F)(F)F)c3)ncc2F)nc1C(=O)NC1CNCC(F)C1 (stereo not drawn) | enzyme activity | – | 1 µM | baseline: DMSO control | remaining activity | 65.6% |
| CS(=O)(=O)Nc1cccc(-c2csc3cnc(Nc4ccc(N5CCN(CCCCCOc6cccc7c6C(=O)N(C6CCC(=O)NC6=O)C7=O)CC5)cc4)nc23)c1 (stereo not drawn) | probe labelling, inhibitor, KiNativ chemoproteomics | MOLT-4 | 1 µM | – | inhibition | -7.94% |
| CCn1cc(C(=O)O)c(=O)c2c(N)c(F)c(NC3CCCCC3)cc21 | kinase activity | – | 0.1 µM, added: ATP at Km | – | inhibition | 2% |
| Cc1ccc(-c2c(/C=C(\C#N)C(=O)NC(C)C)n(CCCO)c3ncnc(N)c23)cc1 | cell-free assay, competition with immobilised ligand | – | 1 µM | – | remaining binding | 99% |
| COCC12C(=O)NC3C4(C(OC)CC1O)C1CC5(O)C(OC)C(O)C(OC(C)=O)(C1C5OC(=O)c1ccccc1)C3(O)C(OC)C24 (stereo not drawn) | kinase activity, inhibitor, ProQinase kinase profiling | – | 25 µM | baseline: control | remaining activity | 104% |
| O=C=[N][Ru-4]123([n]4c5ccc(O)cc5c5c6c(c7cc(F)c[n+]1c7c54)C(=O)NC6=O)[S+]1CC[S+]2CC[S+]3CC1 (stereo not drawn) | enzyme activity | – | 100 nM, human enzyme, added: 10 µM ATP | baseline: untreated | remaining activity | 103% |
| NC(=O)C[C@H]1CCc2sc3ncnc(O[C@H]4CC[C@H](N5CCOCC5)CC4)c3c21 | enzyme activity, inhibitor | – | 10 µM | – | inhibition | 0% |

Some of these lines once more:
| Compound | assay | test system | setting | scale | quantity | value |
| --- | --- | --- | --- | --- | --- | --- |
| COc1ccc(NC(=O)Nc2ccc3c(c2)C(=O)N(C(C)CO)CC(C)C(CN(C)Cc2ccc4c(c2)OCO4)O3)cc1 (stereo not drawn) | kinase activity, KinaseProfiler | – | 0.03 µM, species human | baseline: control | remaining activity | 101% |
| Nc1ncc2c(n1)-c1c([nH]c3ccc(C4=CCOCC4)cc13)CCC2 | binding, competition with immobilised ligand | – | 1 µM | – | remaining binding | 82% |
